Measured values gathered from unrelated publications.
Numbered parts are unrelated; each lists some results of a single study. Substitutions count along the parent as printed.
Chain of UniProt P28221 (whole entry, looked up): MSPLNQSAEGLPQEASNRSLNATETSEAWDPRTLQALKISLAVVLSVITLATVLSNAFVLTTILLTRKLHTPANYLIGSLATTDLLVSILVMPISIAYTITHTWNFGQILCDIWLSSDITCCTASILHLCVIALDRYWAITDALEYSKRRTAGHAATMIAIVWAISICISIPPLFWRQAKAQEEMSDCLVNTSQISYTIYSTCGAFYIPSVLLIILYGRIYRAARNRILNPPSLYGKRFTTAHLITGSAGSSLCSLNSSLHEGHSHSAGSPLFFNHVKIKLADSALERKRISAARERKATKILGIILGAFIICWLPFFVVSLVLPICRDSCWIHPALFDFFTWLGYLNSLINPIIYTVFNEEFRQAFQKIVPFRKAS

Study 1
Target: FOS, bZIP domain (human)
Technique: DHFR protein complementation
Medium: yeast
Setting: single substitutions, most at no-binding floor
Reference: wild-type JUN-FOS pair
Reading: higher = stronger binding
Parent: JUN, bZIP domain (human); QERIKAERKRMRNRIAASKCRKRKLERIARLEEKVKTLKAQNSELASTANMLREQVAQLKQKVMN; partner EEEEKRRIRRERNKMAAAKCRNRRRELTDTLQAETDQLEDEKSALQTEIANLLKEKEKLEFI
Substitution | binding fitness [natural log]
K34S | -0.164
L52Y | -0.837
A40F | -0.182
S47Y | -0.149
L38W | -1.33
A40C | -0.174
M51L | 0.0185
Q55R | -0.183

Study 2
Target: Transcriptional repressor CTCF (CTCF, Homo sapiens, UniProt P49711, residues 1-727, full length assumed)
Chain of UniProt P49711 (whole entry, looked up): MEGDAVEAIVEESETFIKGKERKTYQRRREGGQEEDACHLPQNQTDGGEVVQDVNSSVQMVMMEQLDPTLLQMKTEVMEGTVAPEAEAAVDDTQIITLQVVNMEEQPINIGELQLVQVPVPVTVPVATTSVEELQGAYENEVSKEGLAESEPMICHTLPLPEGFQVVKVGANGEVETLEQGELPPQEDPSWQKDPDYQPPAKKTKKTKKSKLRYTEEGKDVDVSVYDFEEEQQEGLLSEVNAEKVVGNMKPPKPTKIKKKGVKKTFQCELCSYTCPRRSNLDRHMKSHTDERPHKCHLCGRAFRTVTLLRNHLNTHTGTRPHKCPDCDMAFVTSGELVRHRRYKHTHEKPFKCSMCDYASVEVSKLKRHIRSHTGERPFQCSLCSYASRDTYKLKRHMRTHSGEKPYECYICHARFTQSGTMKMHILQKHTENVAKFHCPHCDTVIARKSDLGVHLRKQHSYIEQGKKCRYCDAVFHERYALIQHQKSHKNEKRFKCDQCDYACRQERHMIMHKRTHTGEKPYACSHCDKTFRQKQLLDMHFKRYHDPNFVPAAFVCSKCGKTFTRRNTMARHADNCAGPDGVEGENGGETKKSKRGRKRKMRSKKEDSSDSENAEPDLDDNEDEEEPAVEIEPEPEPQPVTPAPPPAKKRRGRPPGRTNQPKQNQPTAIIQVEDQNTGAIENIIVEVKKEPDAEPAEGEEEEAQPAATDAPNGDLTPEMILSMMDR
Technique: protein-binding microarray
Molecule type: double-stranded DNA, one strand shown
Medium: in vitro
Concentration: not given
Setting: k-mer, scored over probes, only values ≥0.25
Reading: higher = stronger binding
Sequence | E-score
ATACCACC | 0.254
CACATTAC | 0.301
ATTATGTA | 0.328
AATTAAGT | 0.296
ATTCGATA | 0.268
CATGATAA | 0.287
ACATTACC | 0.263
GCGCCCCC | 0.485

Study 3
Target: RING finger protein unkempt homolog, zinc fingers 1-6, GST-SBP tag (UNK, Homo sapiens, UniProt Q9C0B0, residues 30-357)
Technique: RNA Bind-n-Seq
Molecule type: RNA
Medium: in vitro
Concentration: not given
Setting: RNA with constant flanks, human-mouse chimeric sites, ends assumed
Reference: input RNA pool
Reading: higher = stronger binding
Shared flanks, not repeated: GGGAGUUCUACAGUCCGACGAUC … CAACAGAGGAUUGAGCAUCA
Target sequence (chain): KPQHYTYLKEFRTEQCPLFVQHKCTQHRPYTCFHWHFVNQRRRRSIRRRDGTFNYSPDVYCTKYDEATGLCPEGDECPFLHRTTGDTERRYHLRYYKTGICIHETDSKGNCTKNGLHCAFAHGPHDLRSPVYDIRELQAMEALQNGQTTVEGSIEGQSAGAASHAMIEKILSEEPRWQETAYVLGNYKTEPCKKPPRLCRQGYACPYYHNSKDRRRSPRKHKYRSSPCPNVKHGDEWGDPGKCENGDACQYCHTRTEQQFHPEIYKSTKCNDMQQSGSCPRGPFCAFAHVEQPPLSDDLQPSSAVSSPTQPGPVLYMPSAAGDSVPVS
Sequence | bound/input enrichment [ratio]
CUGAAAAACACAGAUAUCAAAGUUGUUGACUUUGGAAGUGCAACGUAUGAUGAUGAACAUCAUAGUACUUUGGUGUCUACCCGGCACUACAGGGCUCCCGAGGUCAUUUUGGCUUUAGGU | 0.262
AAAGAACUUGCUGAUGAUGAAGAUGAGGAAGACAAUGAUGAUGUUGAACCCAUUUCUGAAUUUCGAUUUGUGCCCAGUGAUAAGUCAGCAUUGGAGGCGAUGUUCACUGCAAUGUGCGAG | 0.243
GAUCAUGAACCACCAUCAGAAAUGAAGAUGAGAUUACCCAGACGAGCCAAAACAGCUAGCACUAGAAAAAGUAAACUUUAACCUUGCGAGUUCCUUAAUGAAGAUACAAGUUAAGAGAGC | 3.19
GGUGGGGUGGUCAUUGCCGUUUGAGCUGCUGAUUUUCAUGAGUCGCCUUCAAAACUCUCGUGUAGGGUUGACAAUGUAAGGGGUGGGGGGAUCCAGCUUAUUCUUUUUCCCCAGCCCCCA | 0.766
UCUUUAAAUGCACUACAACCUUUUCUGACAGUGCUUUCCCUCCCAUAGAUCCACGUUCAAGCUCAAAGAGCAAAGGCUCCGCAAACAGCUCAAACAUCUGAUGAAGAAAGAUUUCUGAGA | 0.405
CACACACUCUUCUGCGGGACCCUCAUCUUGCAGGCCCGAGCCUACGUGGGACCGCACGUGCUAGCAGUGGUGACCCGCACAGGGUUCUGCACGGCAAAAGGGGGCCUGGUGAGCUCCAUC | 0.0782
UAAGUCCAUUUGUAAGCCUUCGCUCAUAAAGUUUUAAAUUCUGGACCAAUAGUGUUUGUUUCCUGAUUAUUGUAUCCAAUACUUUAUCUAGUAUGUAACUCACUCUUACUGAUAAUAAAA | 0.93
GUUGCCAGCUUCCGGUUGGCCUCCAUCCGGUUCUCUCCUGAGCUACGGUCCCUGGCACUCUCAAUCCGCCAUCCAACAAACAUGGAUCAGGUAAUGCAGUUUGUGGAGCCCAGCCGGCAG | 0.139

Single results of other studies
SMILES | target | test | setting | measurement | result
Nc1c(C(=O)NCc2ccc(C(=O)NCCCC3CCCCC3)cc2)cnn1-c1ccccc1 | 5-hydroxytryptamine receptor 1D (HTR1D, Homo sapiens, UniProt P28221) | binding, radioligand binding | 10 µM | inhibition | 27.6%

Repeated from above (study 3):
Sequence | bound/input enrichment [ratio]
CACACACUCUUCUGCGGGACCCUCAUCUUGCAGGCCCGAGCCUACGUGGGACCGCACGUGCUAGCAGUGGUGACCCGCACAGGGUUCUGCACGGCAAAAGGGGGCCUGGUGAGCUCCAUC | 0.0782
GGUGGGGUGGUCAUUGCCGUUUGAGCUGCUGAUUUUCAUGAGUCGCCUUCAAAACUCUCGUGUAGGGUUGACAAUGUAAGGGGUGGGGGGAUCCAGCUUAUUCUUUUUCCCCAGCCCCCA | 0.766
